Measured values collected from several papers.
Protocols differ between the studies behind these lines. Numbers after ± are the reported error.
Organism: varicella-zoster virus

SMILES | assay | system | EC50
O=c1[nH]c(=O)n([C@H]2C[C@H](O)[C@@H](CO)O2)cc1/C=C/Br | plaque formation | HEL, TK- 07-1 | 19.6 ± 23 µM
O=Cc1cc(Cn2cc(F)c(=O)[nH]c2=O)ccc1O | plaque formation, plaque reduction | HEL fibroblasts, TK- strain 07-1 | > 100 µM
CCCCN1C(=O)c2cccc3cc(NC(=O)[C@H]4C[C@@H](P(=O)(OCC)OCC)N(C)O4)cc(c23)C1=O (racemic) | viral plaque formation, plaque reduction | HEL, thymidine kinase deficient | 45 µM
Cc1cn(Cc2ccc(O)c(C=O)c2)c(=O)[nH]c1=O | plaque formation, plaque reduction | HEL fibroblasts, TK+ strain OKA | > 100 µM
NC1=NC(=O)N(C[C@@H](CF)OCP(=O)(O)O)CN1 | plaque formation | HEL, TK-deficient 07-1 | > 100 µM
O=C1Nc2ccccc2/C1=N/NC(=S)N/N=C1\C(=O)Nc2ccccc21 | plaque formation | HEL, TK+ | > 20 µM
CCCCCCCCCCCCCCCCOCCCOP(=O)(O)COCCn1cnc2c(=O)[nH]c(=O)[nH]c21 | plaque formation | HEL, Oka TK+ | 0.1 ± 0.05 µM
CCOC(=O)C(C)NP(=O)(COC(CF)CN1CN2C=C(c3ccccc3)NC2=NC1=O)NC(C)C(=O)OCC (centres unmarked) | plaque formation | HEL, TK-deficient 07-1 | > 100 µM
O=c1nc(NC2CC2)c2ncn(CCOCP(=O)(O)O)c2[nH]1 | plaque formation | HEL, Oka TK+ | > 100 µM
O=C1/C(=N\NC(=S)NN=Cc2ccccc2)c2ccccc2N1Cc1ccccc1 | plaque formation | HEL, TK- | > 20 µM
Cc1nn(Cc2ccc(O)c(C=O)c2)c(=O)[nH]c1=O | plaque formation, plaque reduction | HEL fibroblasts, TK- strain 07-1 | > 20 µM
O=C(N/N=C1\C(=O)Nc2ccccc21)N/N=C1\C(=O)Nc2ccccc21 | plaque formation | HEL, TK- | > 100 µM
Nc1ccn(C[C@@H](CO)OCP(=O)(O)O)c(=O)n1 | plaque formation | HEL, Oka TK+ | 0.92 ± 0.38 µM
O=Cc1cc(Cn2ccc(=O)[nH]c2=O)ccc1O | plaque formation, plaque reduction | HEL fibroblasts, TK+ strain OKA | > 100 µM
O=c1[nH]c(=O)n([C@H]2C[C@H](O)[C@@H](CO)O2)cc1/C=C/Br | plaque formation | HEL, TK+ | 2.1 µM
O=c1[nH]c(=O)n([C@H]2C[C@H](O)[C@@H](CO)O2)cc1/C=C/Br | plaque formation | HEL, TK-deficient 07-1 | 26.7 ± 19 µM
Cc1ccc2c(c1)/C(=N/NC(=O)N/N=C1\C(=O)Nc3ccc(C)cc31)C(=O)N2 | plaque formation | HEL, TK+ | > 100 µM
NC1=NC(=O)N(CC(O)C(F)(F)F)CN1 (centres unmarked) | plaque formation | HEL, TK-deficient 07-1 | > 100 µM
O=C(N/N=C1\C(=O)Nc2ccc([N+](=O)[O-])cc21)N/N=C1\C(=O)Nc2ccc([N+](=O)[O-])cc21 | plaque formation | HEL, TK+ | > 20 µM
CCOC(=O)C(C)NP(=O)(COC(CF)CN1CN2C=C(c3ccc(OC)cc3)NC2=NC1=O)NC(C)C(=O)OCC (centres unmarked) | plaque formation | HEL, TK-deficient 07-1 | > 100 µM

A few entries again:
SMILES | assay | system | EC50
O=C1/C(=N\NC(=S)NN=Cc2ccccc2)c2ccccc2N1Cc1ccccc1 | plaque formation | HEL, TK- | > 20 µM
CCOC(=O)C(C)NP(=O)(COC(CF)CN1CN2C=C(c3ccc(OC)cc3)NC2=NC1=O)NC(C)C(=O)OCC (centres unmarked) | plaque formation | HEL, TK-deficient 07-1 | > 100 µM
Cc1nn(Cc2ccc(O)c(C=O)c2)c(=O)[nH]c1=O | plaque formation, plaque reduction | HEL fibroblasts, TK- strain 07-1 | > 20 µM
